Results pooled from the literature.
Parts stem from different laboratories: compare values within a part only.

Sample 1
Target: Histone acetyltransferase KAT6A, both winged helices, GST fusion (KAT6A, Homo sapiens, UniProt Q92794, residues 1-181)
Method: protein binding microarray
Molecule type: double-stranded DNA, one strand shown
Sample: in vitro
Tested at: not given
Setting: 8-mer, flanks averaged, mean of 2 arrays, mostly near background
Relative to: not given
Direction: higher = stronger binding
Target sequence (chain): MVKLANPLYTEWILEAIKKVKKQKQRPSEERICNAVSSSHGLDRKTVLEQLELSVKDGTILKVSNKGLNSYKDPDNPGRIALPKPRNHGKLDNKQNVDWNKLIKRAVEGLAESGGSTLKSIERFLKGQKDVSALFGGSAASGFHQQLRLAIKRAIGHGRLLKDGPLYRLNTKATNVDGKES
Strand	E-score
AACAGAAC	-0.0643
ATAAATCG	0.00734
AATTTCAT	-0.141
CAATTTGG	-0.142
GATAACTA	-0.179
AGGAGTTC	-0.227
GAGCAGAC	-0.0021
ACTATAGT	-0.0795

Sample 2
Target: Sal-like protein 4, full length isoform B (SALL4, Homo sapiens, UniProt Q9UJQ4-2, residues 1-616)
Method: universal PBM
Molecule type: double-stranded DNA, one strand shown
Sample: in vitro
Tested at: not given
Setting: 8-mer, flanks averaged, mean of replicates
Direction: higher = stronger binding
Target sequence (chain): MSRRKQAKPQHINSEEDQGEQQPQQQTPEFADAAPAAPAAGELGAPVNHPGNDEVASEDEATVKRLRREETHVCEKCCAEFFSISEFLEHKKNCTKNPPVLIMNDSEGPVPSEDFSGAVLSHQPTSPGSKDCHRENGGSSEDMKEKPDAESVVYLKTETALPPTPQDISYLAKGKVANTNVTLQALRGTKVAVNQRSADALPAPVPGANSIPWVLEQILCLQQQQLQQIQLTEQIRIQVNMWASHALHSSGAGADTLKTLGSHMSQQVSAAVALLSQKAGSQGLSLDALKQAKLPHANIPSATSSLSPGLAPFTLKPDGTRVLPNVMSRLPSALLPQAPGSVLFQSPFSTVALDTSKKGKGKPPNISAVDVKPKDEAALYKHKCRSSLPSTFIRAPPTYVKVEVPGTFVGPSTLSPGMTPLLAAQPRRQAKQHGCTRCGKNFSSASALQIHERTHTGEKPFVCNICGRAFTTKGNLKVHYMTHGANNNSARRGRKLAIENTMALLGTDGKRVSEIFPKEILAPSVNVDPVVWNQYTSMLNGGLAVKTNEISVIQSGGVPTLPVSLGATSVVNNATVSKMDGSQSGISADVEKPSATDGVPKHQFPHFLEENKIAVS
Strand	E-score
GGTCAAGA	-0.101
CTGAGTAA	0.147
AGCAAGTA	0.134
CTGTCCGC	-0.286
CACGTCTA	0.0622
CAGACAGC	-0.196
TCAACGGA	-0.0452
GACTCCGA	-0.261

Sample 3
Cell line: HEK-293T/ACE2
Tested at: concentration not given
Time: 16 (unit not given)
Relative to: vehicle
SMILES	viability [%]
CCOC(=O)c1ncn2c1CN(C)C(=O)c1cc(F)ccc1-2	100
CN1CCN2c3ncccc3Cc3ccccc3C2C1 (stereo not shown)	107
CCOC(=O)c1ccc(C#Cc2ccc3c(c2)C(C)(C)CCS3)nc1	95.5

Sample 4
Target: Centromere-binding protein 1, full length, His-tagged (CBF1, Saccharomyces cerevisiae, UniProt P17106, residues 1-351)
UniProt P17106, sequence (whole entry, looked up): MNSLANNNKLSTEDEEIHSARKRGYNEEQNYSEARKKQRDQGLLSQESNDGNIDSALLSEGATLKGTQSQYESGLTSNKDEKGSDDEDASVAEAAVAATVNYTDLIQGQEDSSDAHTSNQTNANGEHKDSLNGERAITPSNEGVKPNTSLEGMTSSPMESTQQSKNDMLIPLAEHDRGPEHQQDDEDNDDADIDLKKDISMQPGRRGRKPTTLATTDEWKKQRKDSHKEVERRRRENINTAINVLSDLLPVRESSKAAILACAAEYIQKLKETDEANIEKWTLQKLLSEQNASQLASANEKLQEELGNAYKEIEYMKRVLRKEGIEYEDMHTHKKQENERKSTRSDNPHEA
Method: competition protein-binding microarray
Molecule type: double-stranded DNA, one strand shown
Sample: in vitro
Tested at: 2 µM
Setting: whole 60-bp probe, lowest competitor level
Added: Pho4 competitor, 0.05 µM
Direction: higher = stronger binding
Constant ends, left off below: … GTCTTGATTCGCTTGACGCTGCTG
Strand	fluorescence intensity
AATAGGCTTTGCCTACACGTGACTCGTATTTGGTGT	5220 a.u.
AGGAGCCCTGATTTCTTCGTGCGATATCGGTGCGGG	63.1 a.u.
AAGGACTCTAACTGGCACGTCTGGTATAGCGGACAG	73.6 a.u.
CTTCTGTAAATTTGTCACCCAACTTGACGCGCCCCG	91.4 a.u.
ACCCTTTTCCCGAGTCACGTGCAAAGTGTAATAGTA	6670 a.u.

Sample 5
Target: Replicase polyprotein 1ab, main protease (rep, Severe acute respiratory syndrome coronavirus 2, UniProt P0DTD1)
Observed: enzyme activity
Mode: inhibitor
Setting: without DTT
SMILES	IC50
COc1cccc(C(=O)CCN[C@@H](C)[C@H](O)c2ccccc2)c1	2400 nM
COC(=O)C1=C(C)NC(C)=C(C(=O)OC)C1c1ccccc1[N+](=O)[O-]	> 20000 nM
Nc1nc2c(ncn2[C@@H]2O[C@H](CO)[C@@H](O)[C@H]2O)c(=S)[nH]1	1100 nM

Sample 6
Target: Replicase polyprotein 1ab, nsp13 helicase (rep, Severe acute respiratory syndrome coronavirus 2, UniProt P0DTD1)
Mode: inhibitor
Tested at: 20 µM
SMILES	inhibition
CN1[C@@H]2CC(O)C[C@H]1[C@@H]1O[C@@H]12 (stereo partly shown)	-0.48%
COc1cc(N)c(Cl)cc1C(=O)NC1CN2CCC1CC2 (stereo not shown)	-1.82%
O=C(Nc1ccccc1-c1cn2c(CN3CCNCC3)csc2n1)c1cnc2ccccc2n1	71.7%
Nc1ccn([C@H]2C[C@H](O)[C@@H](CO)O2)c(=O)n1	2.12%
CCOC(=O)N1CCC(=C2c3ccc(Cl)cc3CCc3cccnc32)CC1	-4.06%
Cc1nc2sccn2c(=O)c1CCN1CCC(=C(c2ccccc2)c2ccc(F)cc2)CC1	2.11%
COc1cc(C)[nH]c(=O)c1CNC(=O)c1c(C)n([C@H](C)C2CCOCC2)c2ccccc12	-0.35%
CCc1cccc(CC)c1NC(=O)CN(CC(=O)O)CC(=O)O	-0.82%
CCc1cc2c(cc1N1CCC(N3CCOCC3)CC1)C(C)(C)c1[nH]c3cc(C#N)ccc3c1C2=O	7.31%
NC(=O)c1cccc(-c2cc(Nc3ccc(OC(F)(F)F)cc3)ncn2)c1	1.17%
N#Cc1ccnc(N2C(=O)CC[C@H]2C(=O)N(c2cncc(F)c2)[C@H](C(=O)NC2CC(F)(F)C2)c2ccccc2Cl)c1	7.93%
N#Cc1ccc2[nH]cc(CCCCN3CCN(c4ccc5oc(C(N)=O)cc5c4)CC3)c2c1	5.01%
C/C(=C\CNc1ncnc2nc[nH]c12)CO	0.68%
COc1cc([C@H]2Oc3ccc([C@H]4Oc5cc(O)cc(O)c5C(=O)[C@@H]4O)cc3O[C@@H]2CO)ccc1O	4.78%
CCN(c1cc(C#CCN2CCOCC2)cc(C(=O)NCc2c(C)cc(C)[nH]c2=O)c1C)[C@H]1CC[C@H](N(C)CCOC)CC1	11%
CC(C)(O)CS(=O)(=O)Nc1ccc2c(c1)CCN(C(=O)COc1cccnc1)C2	6.35%
CC[C@@H](CO)NCCN[C@@H](CC)CO	3.55%
O=C(O)C1=C(CSc2nnnn2CS(=O)(=O)O)CS[C@@H]2[C@H](NC(=O)[C@H](O)c3ccccc3)C(=O)N12	1.68%
Nc1c(-c2cccc(C(F)(F)F)c2)nsc1C(=O)O	2.96%
CCCCCCCCCCCCCC(=O)OC(C)C	-0.42%
Cc1cc(Nc2nc(N[C@@H](C)c3ncc(F)cn3)ncc2Cl)[nH]n1	0.42%
CC1=C(C(=O)OC(C)C)C(c2cccc([N+](=O)[O-])c2)C(C(=O)OC2CN(C(c3ccccc3)c3ccccc3)C2)=C(N)N1 (stereo not shown)	4.08%
CCCCOc1ccc(OCCCN2CCOCC2)cc1	-1.66%
N[C@@H](CCC(=O)O)C(=O)O	8.94%
CC1(C)OC[C@H](NC(=O)Nc2ccc(Br)cc2Br)[C@H](c2ccccc2)O1	9.46%

For quick reference, copied from above (sample 6):
SMILES	inhibition
O=C(O)C1=C(CSc2nnnn2CS(=O)(=O)O)CS[C@@H]2[C@H](NC(=O)[C@H](O)c3ccccc3)C(=O)N12	1.68%
Nc1c(-c2cccc(C(F)(F)F)c2)nsc1C(=O)O	2.96%
CCCCCCCCCCCCCC(=O)OC(C)C	-0.42%
Cc1cc(Nc2nc(N[C@@H](C)c3ncc(F)cn3)ncc2Cl)[nH]n1	0.42%
CC1=C(C(=O)OC(C)C)C(c2cccc([N+](=O)[O-])c2)C(C(=O)OC2CN(C(c3ccccc3)c3ccccc3)C2)=C(N)N1 (stereo not shown)	4.08%
CCCCOc1ccc(OCCCN2CCOCC2)cc1	-1.66%
